Assay results collected from several papers.
Each numbered part is a random draw from the data of one study; scales do not carry over between parts. Values joined by “and” are separate records of one study, mostly repeats; a detail may differ.

Set 1 — read-out: enzyme activity; mode: inhibitor; concentration: 20 µM; setting: primary screen
Target: Replicase polyprotein 1ab, main protease (rep, Severe acute respiratory syndrome coronavirus 2, UniProt P0DTD1)
With `O=c1cc(-c2ccccc2)oc2cc(O)c(O)c(O)c12` the inhibition was 98%.
The inhibition of `CCCCCCCCCCCCCCSCC(=O)O` is reported as 27.3%.
With `COc1ccc2nc(S)[nH]c2c1` the inhibition was 97.9%.
`CC(C)C[C@@H](C=O)NC(=O)[C@H](CC(C)C)NC(=O)[C@H](CC(C)C)NC(=O)OCc1ccccc1` has an inhibition of 68.5% and 91.7%.

Set 2 — cell line: HEK-293T; read-out: pseudovirus infection; organism: VSV pseudotyped with SARS-CoV-2 spike; concentration: 10 µM; time: 16 h; reference: vehicle-treated
With `NCCCC(N)(C(=O)O)C(F)F` (stereo not shown) the GFP-positive cells was 78.7%.
For `c1ccc(CC2=NCCN2)cc1`, the GFP-positive cells was 108%.
For `C[C@@H]1C[C@H]2[C@@H]3CCC4=CC(=O)C=C[C@]4(C)[C@@]3(Cl)[C@@H](O)C[C@]2(C)[C@@]1(OC(=O)c1ccco1)C(=O)CCl`, the GFP-positive cells was 54.1%.
`N#Cc1ccccc1-c1cc(-c2ccccn2)cn(-c2ccccc2)c1=O` has a GFP-positive cells of 95.6%.

Set 3 — technique: protein-binding microarray; molecule type: hairpin DNA; sample: in vitro; concentration: not given; reference: not given; direction: higher = stronger binding
Target: Cyclic AMP-responsive element-binding protein 1, full length (CREB1, Homo sapiens, UniProt P16220, residues 1-327)
Chain of UniProt P16220 (whole entry, looked up): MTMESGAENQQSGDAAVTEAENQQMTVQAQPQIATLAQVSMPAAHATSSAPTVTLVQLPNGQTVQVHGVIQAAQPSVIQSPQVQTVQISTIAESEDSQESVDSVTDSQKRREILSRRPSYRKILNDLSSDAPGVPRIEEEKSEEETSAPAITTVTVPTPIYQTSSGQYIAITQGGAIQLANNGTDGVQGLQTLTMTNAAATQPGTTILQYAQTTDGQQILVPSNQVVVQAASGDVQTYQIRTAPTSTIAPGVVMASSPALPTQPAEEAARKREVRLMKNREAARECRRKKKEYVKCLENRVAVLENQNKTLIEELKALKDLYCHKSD
Setting: whole hairpin DNA, median over replicate spots
With `GAGGCCGGCAGACGTCAGCCTCCTGGCTGACGTCTGCCGGCCTCACACTC` the median fluorescence was 4370 a.u.
The median fluorescence of `GAGGCCGGCGGACGTCAGCCTCCTGGCTGACGTCCGCCGGCCTCACACTC (5mC at 35)` is reported as 4160 a.u.
For `GAGGCCGGCTGACGTGAGCCTCCTGGCTCACGTCAGCCGGCCTCACACTC`, the median fluorescence was 5260 a.u.

Set 4 — read-out: enzyme activity; mode: inhibitor; concentration: 20 µM
Target: Replicase polyprotein 1ab, polymerase (rep, Severe acute respiratory syndrome coronavirus 2, UniProt P0DTD1)
`Cc1cccc(C(=O)NCN2CCN(c3ccccc3C#N)CC2)c1` gave an inhibition of -1.83%.
`COc1cc(NC(=O)c2cccc(-n3cc(NC(=O)Nc4cccc(C)c4)cn3)c2)cc(OC)c1OC` gave an inhibition of 0.99%.
For `CCOC(=O)Nc1ccc2c(c1)N(C(=O)CCN(CC)CC)c1ccccc1S2`, the inhibition was -0.42%.
`O=C(O)C1CSCN1` (stereo not shown) has an inhibition of 3.36%.
The inhibition of `CC(=O)C(=Cc1cc(O)c(O)c([N+](=O)[O-])c1)C(C)=O` is reported as 0.76%.
`CCCCCCCCCCCCCCCC[N+](C)(C)CCN(Cc1ccc(OC)cc1)c1ncccn1` has an inhibition of 12.1%.
The inhibition of `COc1ccc(CCN(C)CCCN2CCc3cc(OC)c(OC)cc3CC2=O)cc1OC` is reported as -0.06%.
`COCC1(CO)C(=O)C2CCN1CC2` (stereo not shown) gave an inhibition of 7.24%.
For `O=C(c1cc(C2CC2)on1)N(C1CCCCC1)C1CCCCC1`, the inhibition was -9.13%.
The inhibition of `O=S(=O)(O)c1cc(O)ccc1O` is reported as 1.4%.
For `Nc1nc(=O)n([C@@H]2O[C@H](CO)[C@@H](O)[C@@H]2F)cc1I`, the inhibition was 2.4%.
`CC[C@H]1[C@@H]2C[C@H]3[C@@H]4N(C)c5ccccc5[C@]45C[C@@H]([C@H]2[C@H]5O)N3[C@@H]1O` has an inhibition of -0.28%.
`C[C@@H]1CCCN1CCc1cc2cc(-c3ccc(C#N)cc3)ccc2o1` has an inhibition of 4.56%.
`CO[C@H]1/C=C/O[C@@]2(C)Oc3c(C)c(O)c4c(O)c(c(/C=N/N=C/N5CCCCC5)c(O)c4c3C2=O)NC(=O)/C(C)=C\C=C\[C@H](C)[C@H](O)[C@@H](C)[C@@H](O)[C@@H](C)[C@H](OC(C)=O)[C@@H]1C` has an inhibition of 8.31%.
With `O=C(O)c1ccccc1Nc1ccc(CCc2ccc(Cl)c(Cl)c2)cc1` the inhibition was 81.8%.
`FC(F)(F)C(F)(F)C(F)(F)N(C(F)(F)C(F)(F)C(F)(F)F)C(F)(F)C(F)(F)C(F)(F)F` gave an inhibition of 3.13%.
`Cc1ccccc1-n1c(Cn2ncc3c(N)ncnc32)nc2cccc(C)c2c1=O` has an inhibition of 3.56%.
For `CC(C)(CCCCCCCCCCC(C)(C)CC(=O)O)CC(=O)O`, the inhibition was 0.9%.
With `NC(=O)CN1C[C@H](O)CC1=O` the inhibition was -6.09%.
`COc1ccc(CNC(=O)/C=C/c2ccc3[nH]cc(CCN(C)C)c3c2)cc1` gave an inhibition of -11.4%.
`CCCN[C@@H]1CCc2c(OC)cccc2[C@@H]1C` has an inhibition of 1%.
The inhibition of `Nc1ncnc2c1c(COc1cccc(Cl)c1)nn2C1CCOCC1` is reported as 0.1%.

Set 5 — technique: RNA Bind-n-Seq; molecule type: RNA; sample: in vitro; concentration: 15 pmol; setting: 4-mer, random 30-nt RNA, single round; together with: 3 µM DMDA-PatA, 2 mM AMP-PNP; reference: input library; direction: higher = stronger binding
Target: Eukaryotic initiation factor 4A-I (EIF4A1, Homo sapiens, UniProt P60842, residues 1-406, full length assumed)
Chain of UniProt P60842 (whole entry, looked up): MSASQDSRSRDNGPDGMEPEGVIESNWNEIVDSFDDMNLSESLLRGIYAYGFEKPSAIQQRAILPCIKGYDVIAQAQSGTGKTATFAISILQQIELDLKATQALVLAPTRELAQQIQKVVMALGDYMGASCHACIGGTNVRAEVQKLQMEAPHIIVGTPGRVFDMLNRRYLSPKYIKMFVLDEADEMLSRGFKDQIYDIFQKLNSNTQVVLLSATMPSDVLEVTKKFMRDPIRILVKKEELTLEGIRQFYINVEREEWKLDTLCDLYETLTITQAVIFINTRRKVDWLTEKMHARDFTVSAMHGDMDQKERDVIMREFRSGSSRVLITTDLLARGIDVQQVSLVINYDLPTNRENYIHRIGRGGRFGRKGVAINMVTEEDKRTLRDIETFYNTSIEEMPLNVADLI
The 4-mer enrichment of `GGUA` is reported as 1.52 fold.
`ACCC` gave a 4-mer enrichment of 0.407 fold.
`GACA` has a 4-mer enrichment of 0.776 fold.
With `CUUC` the 4-mer enrichment was 0.551 fold.
`AUAU` has a 4-mer enrichment of 1.15 fold.

Set 6 — technique: RNA Bind-n-Seq; molecule type: RNA; sample: in vitro; concentration: 200 nM; setting: whole 134-nt RNA, ends assumed; together with: 150 mM KCl; reference: input library; direction: higher = stronger binding
Target: Fragile X messenger ribonucleoprotein 1, C-terminal low-complexity region (Fmr1, Mus musculus, UniProt P35922)
For `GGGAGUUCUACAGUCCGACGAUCCAAGUCCUGUGCUACACAUCGUAUGUACCGAAUCGGGUUUUUGGGUUUGGGUGGGAAAGUAUUAUGUUACGCCGUUCGGAUCUGCACUUCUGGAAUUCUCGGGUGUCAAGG`, the log2 enrichment was 1.2.
With `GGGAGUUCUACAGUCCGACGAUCCCUCAAGUCCUGUGCUACACAUCGUAUGUACCGAAUCGGCCGGCCGGGCCGGGAAAGUAUUAUGUUACGCCGUUCGGAUCUGCACUUCCAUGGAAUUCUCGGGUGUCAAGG` the log2 enrichment was -0.187.
`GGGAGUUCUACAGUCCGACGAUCCUCAAGUCCUGUGCUACACAUCGUAUGUACCGAAUCGGGGAAGGAAGGAAGGGAAAGUAUUAUGUUACGCCGUUCGGAUCUGCACUUCCAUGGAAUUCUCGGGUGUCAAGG` has a log2 enrichment of -0.112.
The log2 enrichment of `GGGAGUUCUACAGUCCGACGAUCGCAGGAAGUAAAAACAAAUGGAAAUGCUUCGGAUAGUGGCAGGGGUGGGGGUUGCUAAGGAAAGGGUGGGAUGGGAGUAAAUAAAGAGUUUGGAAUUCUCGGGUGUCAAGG` is reported as 0.0252.
For `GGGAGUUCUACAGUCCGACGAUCUGGCCCUGGUGGCAUGCGGGGAGGAAGAGGUGGCCUCAUGGAUCGGGGUGGUCCCGGUGGAAUGUUCAGAGGUGGCCGUGGUGGAGACAGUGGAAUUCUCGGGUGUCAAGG`, the log2 enrichment was -0.226.
For `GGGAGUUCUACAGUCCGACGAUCUGGACUGCCUAUGGAAGAAGAAGUUCAAGAAGGAGCACGAGGAGUUUGAGACCAUGGAGAACGUGAACCGCCUUCUUCUGGAGAACGUCCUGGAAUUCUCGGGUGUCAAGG`, the log2 enrichment was -0.361.
For `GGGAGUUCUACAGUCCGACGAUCUUCCUCAAGUCCUGUGCUACACAUCGUAUGUACCGAAUCGGAGGUGGAGGAAAGUAUUAUGUUACGCCGUUCGGAUCUGCACUUCCAGCAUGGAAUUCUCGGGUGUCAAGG`, the log2 enrichment was -0.928.
`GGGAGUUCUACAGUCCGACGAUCUCAAGUCCUGUGCUACACAUCGUAUGUACCGAAUCGGGAAGGAAGGGGAAGGGGAAAGUAUUAUGUUACGCCGUUCGGAUCUGCACUUCCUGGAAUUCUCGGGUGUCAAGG` has a log2 enrichment of 0.802.
